Measurements of several laboratories.
A part holds a random share of what one study measured.

Series 1
Target: Ras GTPase-activating protein-binding protein 1, RRM domain (G3BP1, Homo sapiens, UniProt Q13283)
Sequence of UniProt Q13283 (whole entry, looked up): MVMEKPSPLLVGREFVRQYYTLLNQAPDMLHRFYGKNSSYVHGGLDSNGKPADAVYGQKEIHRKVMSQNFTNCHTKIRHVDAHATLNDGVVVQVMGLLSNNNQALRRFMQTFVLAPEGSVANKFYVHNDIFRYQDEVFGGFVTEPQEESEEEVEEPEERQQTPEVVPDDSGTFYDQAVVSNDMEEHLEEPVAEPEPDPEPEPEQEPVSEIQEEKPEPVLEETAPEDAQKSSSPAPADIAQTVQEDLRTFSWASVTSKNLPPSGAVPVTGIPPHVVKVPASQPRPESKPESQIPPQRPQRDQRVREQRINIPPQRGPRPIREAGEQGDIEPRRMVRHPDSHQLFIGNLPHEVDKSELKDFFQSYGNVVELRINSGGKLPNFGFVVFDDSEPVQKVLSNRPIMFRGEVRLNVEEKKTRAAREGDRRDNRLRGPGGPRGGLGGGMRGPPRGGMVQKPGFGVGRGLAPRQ
Method: RNA Bind-n-Seq
Molecule type: RNA
Medium: in vitro
Concentration: 1 µM
Notes: whole 134-nt RNA, ends assumed
Added: 150 mM KCl
Baseline: input library
Reading: higher = stronger binding
| Strand | log2 enrichment |
| --- | --- |
| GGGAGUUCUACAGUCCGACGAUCGUCCUGUGCUACACAUCGUAUGUACCGAAUCAAAUUUUUAAAUUUUUAAACCCCCAAAAAAGUAUUAUGUUACGCCGUUCGGAUCUGCACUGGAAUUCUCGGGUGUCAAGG | -1.46 |
| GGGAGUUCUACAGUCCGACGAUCCUCAAGUCCUGUGCUACACAUCGUAUGUACCGAAUCGGUUGGGGUUGGGUUGGGAAAGUAUUAUGUUACGCCGUUCGGAUCUGCACUUCCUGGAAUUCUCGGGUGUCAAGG | 0.45 |
| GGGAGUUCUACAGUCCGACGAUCUGGCCCUUCCCCUGGAGCCAUGCUGGGCCCUAGCCCGGGUCCCUCGCCGGGCUCCGCCCACAGCAUGAUGGGGCCCAGCCCAGGGCCGCCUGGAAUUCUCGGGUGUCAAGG | -0.894 |
| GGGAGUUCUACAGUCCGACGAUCCUCAAGUCCUGUGCUACACAUCGUAUGUACCGAAUCGGAAGGAAGGGAAGGGGAAAGUAUUAUGUUACGCCGUUCGGAUCUGCACUUCCAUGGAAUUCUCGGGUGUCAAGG | -0.232 |
| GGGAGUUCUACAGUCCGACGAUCACCAUGCAGGUGGGCAUCUUUGGGAAGUGGGGCAAGGGGGGGAUAGGGAGGGGGGUAACACUUUGGGAACAGGUGGUCCCAGGUCGUAAAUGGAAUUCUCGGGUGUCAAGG | -0.532 |
| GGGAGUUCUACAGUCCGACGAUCCAAGUCCUGUGCUACACAUCGUAUGUACCGAAUCGGGAAAGGGUUUGGGUUUGGGAAAGUAUUAUGUUACGCCGUUCGGAUCUGCACUUCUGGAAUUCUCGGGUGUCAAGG | 0.774 |
| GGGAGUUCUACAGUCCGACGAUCAAGUCCUGUGCUACACAUCGUAUGUACCGAAUCGGGGCCCCGGGCCCCGGGCCCCGGAAAGUAUUAUGUUACGCCGUUCGGAUCUGCACUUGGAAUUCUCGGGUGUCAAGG | -1.03 |
| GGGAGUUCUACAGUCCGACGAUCCUGUGCUACACAUCGUAUGUACCGAAUCGGGGUUUUUUUGGGGAAAAAAAGGGGUUUGGGGAAAGUAUUAUGUUACGCCGUUCGGAUCUGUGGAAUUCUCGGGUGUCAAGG | 0.336 |
| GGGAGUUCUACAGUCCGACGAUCUGGGAGGUGGAUUUUGUUUAUUUUUUUAGCUCAUUUCCAGGGGUGGGAAUUUUUAUUUAAUAUGUGUCAUGAAUAAAGUUGUUUUUGAAAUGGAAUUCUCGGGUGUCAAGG | 1.57 |

Series 2
Target: Interferon regulatory factor 5, full length, phosphomimetic (IRF5, Homo sapiens, UniProt Q13568-2, residues 1-514, K96S/S451D/S453D/S456D/S462D)
Method: protein-binding microarray
Molecule type: double-stranded DNA, one strand shown
Medium: in vitro
Concentration: 250 nM
Notes: 60-bp whole probe
Added: salmon DNA 0.4 mg/ml
Baseline: random background probes
Reading: higher = stronger binding
All sequences stand within: GCCTAGCAC … GTCTTGATTCGCTTGACGCTGCTG
| Strand | log fluorescence |
| --- | --- |
| AATATTATAACACTCTTCTTGTGCTAG | 0.808 z-score |
| AATTTTTTGTATTTTTAGTGGTGCTAG | 1.14 z-score |
| TTGCATCGTAAGCAAAAATGGTGCTAG | 1.07 z-score |
| GACGGTATCGACCTTCGGGACGTGCTA | 1.4 z-score |
| TTAGGACTGGGACTCGGTTAGTGCTAG | -0.455 z-score |
| TTAGGTTTCGGTATCGGTTGGTGCTAG | 10.6 z-score |
| TCATGGCTGACTTTGGAACTGTGCTAG | -0.392 z-score |
| TTAGGTATAGGGTATCGGTTAGTGCTA | 1.93 z-score |
| TCATATATCTGTGTTATACTGTGCTAG | 0.806 z-score |
| GAGGGTCTCCTTCTCCTGACGTGCTAG | -0.485 z-score |
| TTAGGTATCGGGTTTCCGTTAGTGCTA | 4.1 z-score |
| AACTTTCTCTGCTCTTTTCAAGTGCTA | 3.25 z-score |
| GACGATGTCAGTTTCGAGACGTGCTAG | 4.78 z-score |
| TTTTTTTTTACTTCGGGTGAGTGCTAG | 1.41 z-score |
| TTAGGACTGGGTTTCGGGTAGTGCTAG | 4.49 z-score |
| TCAACACTAATTTTCAAACTGTGCTAG | 0.686 z-score |
| GACGATCTCAGTCTCGAAACGTGCTAG | 0.566 z-score |
| TTCAATTCCTGAAATCTCTTTGTGCTA | 0.872 z-score |
| TGAGGTTTCCTTTTCCTTTAGTGCTAG | 1.16 z-score |

Series 3
Target: RNA binding protein fox-1 homolog 2, RRM domain, GST-SBP tag (RBFOX2, Homo sapiens, UniProt O43251-10, residues 100-194)
Method: RNA Bind-n-Seq
Molecule type: RNA
Medium: in vitro
Concentration: 365 nM
Notes: natural RNA segment, single round, ends assumed
Baseline: no-protein control
Reading: higher = stronger binding
Construct (chain): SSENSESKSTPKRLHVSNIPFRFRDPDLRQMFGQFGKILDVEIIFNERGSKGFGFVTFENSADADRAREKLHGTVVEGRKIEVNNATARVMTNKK
| Strand | RBNS enrichment (R) |
| --- | --- |
| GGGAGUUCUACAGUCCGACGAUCCAAAAAAAGCAAUCAAAGUCUUACGUCAUAGAGGACCACCUUUUGGAUCAUAAAUUCUUUCCCUAUAACAUUCCUUCUCUGCCUCUCUAUGGCCCACUUUGACCACUAACUGGAAUUCUCGGGUGCCAA | 0.631 |
| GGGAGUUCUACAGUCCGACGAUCAAUAGUCUUUCCUGUACUUACCAGAUUUCAAGUAUUCAUAACUUGACUCCCUAAGUGUACAAGUUGGGAAUAGUACAGGGCCAAGUUCAAGUCGCAUAUGCUGUACUGUUUGGAAUUCUCGGGUGCCAA | 0.502 |
| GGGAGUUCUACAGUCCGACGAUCAGAGACACCAGCCAGAGAAAACCCCCUCUAGAAGGAAUGUAUUUGUUGCUAAAUUUUGUAGCACUGUUUACAGUUUUCCUCCAUGUUAUUUAUGAAUUUUAUAUUCCGUGUGGAAUUCUCGGGUGCCAA | 0.467 |
| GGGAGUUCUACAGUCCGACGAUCUUUUCUGACCCUUCUCGAGGACAUUUGCUUUCCUCACACUUUUGUAGUCUCUCUUUACAUAUUACUAUAUGGAAAUGAAUUGCUCUGUGCUGAAAUUUGAAGACCAGAUAUGGAAUUCUCGGGUGCCAA | 0.763 |
| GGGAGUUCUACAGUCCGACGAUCAAUGAAGGCUGACACAGUCCCCCUGCUGAUCAUUUUGCUUUAUAUAUUAAAAAAUGCUGCAAAAAUCUGUCUUGCCUGGAAGGAGGGUGGGGCCGACUGGACCGUAGUAAUGGAAUUCUCGGGUGCCAA | 0.515 |
| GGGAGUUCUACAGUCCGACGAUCAGGAGGGUGUCUGCAGAAGGUGGAGAGCAGGGGCAGAGGCCCCACUGGCCACCCCCUGCUUCCCAGAGUGAAACCUUGUGCCUGGUGACCAAAGUCCCUCCAAAGUGCUCUGGAAUUCUCGGGUGCCAA | 0.391 |
| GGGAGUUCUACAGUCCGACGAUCGCCAGGUCCAGUGGCCUGGGGUCCCACUGCUGAGGGCACCUGCCAGGCCUCACUCCACCCUGAAUGGACUCGAGCCAUGUAUUCAUUCAGUAAACUGACAUUAUUCUCCCUGGAAUUCUCGGGUGCCAA | 0.456 |
| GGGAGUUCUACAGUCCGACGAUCGGUUCUGAGAGGGGGCUUCUAGGAAGGCCCCAGCCCUAGUCCUAGGCGACUUGAAUAAAGUGGGAGGUCAAACAUGGGCCUUCGGCAUUGGGUUUCUAGGGAAUAUGGCUUGGAAUUCUCGGGUGCCAA | 0.314 |

Series 4
Target: Histone acetyltransferase KAT6A, winged helix 2, GST fusion (KAT6A, Homo sapiens, UniProt Q92794, residues 85-181)
Method: protein binding microarray
Molecule type: double-stranded DNA, one strand shown
Medium: in vitro
Concentration: not given
Notes: 8-mer, flanks averaged, mean of 2 arrays, mostly near background
Baseline: not given
Reading: higher = stronger binding
Target sequence (chain): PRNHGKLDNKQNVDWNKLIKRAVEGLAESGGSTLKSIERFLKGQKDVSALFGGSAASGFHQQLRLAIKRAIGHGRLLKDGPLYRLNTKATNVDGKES
| Strand | E-score |
| --- | --- |
| CTTCTAAC | -0.163 |
| TCGTGAGA | 0.0493 |
| GAGCAGGA | 0.0326 |
| GAGGGCTA | -0.0518 |
| ATGTTTTG | 0.0325 |
| ACTCCTCG | -0.0522 |
| CCGTCATC | 0.0137 |
| AATTATTA | 0.148 |
| AGCAGATC | 0.129 |
| CAGTGAAA | 0.149 |
| TATTTCGA | 0.097 |
| CGGGTGGC | 0.227 |
| GGGGCAGA | 0.152 |
| TAGAGATA | 0.0938 |
| ACAACCAG | 0.213 |
| ACGTCTAG | -0.0118 |
| GGGCGCAA | 0.258 |
| GTGGGGCA | 0.104 |
| AATTAGGA | 0.0582 |
| ATCGTGCC | 0.108 |
| AACAACAC | 0.141 |
| TCTCCAGA | 0.0699 |
| GGCGCGGA | 0.0881 |
| AGATGGGA | -0.217 |
| AGCGAAAT | -0.0958 |

A few entries again (series 4):
| Strand | E-score |
| --- | --- |
| ACTCCTCG | -0.0522 |
| CCGTCATC | 0.0137 |
| AATTATTA | 0.148 |
| AGCAGATC | 0.129 |
| CAGTGAAA | 0.149 |
| TATTTCGA | 0.097 |
| CGGGTGGC | 0.227 |
| GGGGCAGA | 0.152 |
